Measured values gathered from unrelated publications.
Each numbered part is a random draw from the data of one study; scales do not carry over between parts. Values joined by “and” are separate records of one study, mostly repeats; a detail may differ.
Sequence of UniProt Q9H1R3 (whole entry, looked up): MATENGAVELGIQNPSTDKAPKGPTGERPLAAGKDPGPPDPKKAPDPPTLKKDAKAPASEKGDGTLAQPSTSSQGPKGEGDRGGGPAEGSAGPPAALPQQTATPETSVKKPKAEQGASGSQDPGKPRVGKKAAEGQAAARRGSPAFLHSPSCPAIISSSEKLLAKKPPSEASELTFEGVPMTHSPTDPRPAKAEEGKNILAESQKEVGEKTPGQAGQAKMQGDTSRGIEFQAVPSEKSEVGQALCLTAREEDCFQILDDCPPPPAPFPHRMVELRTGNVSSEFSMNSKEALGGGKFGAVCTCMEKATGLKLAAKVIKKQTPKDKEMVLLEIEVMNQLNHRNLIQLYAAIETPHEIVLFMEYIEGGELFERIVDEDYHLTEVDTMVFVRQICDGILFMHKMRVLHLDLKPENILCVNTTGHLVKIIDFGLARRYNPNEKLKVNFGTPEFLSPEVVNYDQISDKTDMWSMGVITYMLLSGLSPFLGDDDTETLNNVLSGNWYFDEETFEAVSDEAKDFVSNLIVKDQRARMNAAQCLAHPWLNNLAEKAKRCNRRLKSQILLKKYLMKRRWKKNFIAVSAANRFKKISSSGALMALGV
Sequence of UniProt Q99759 (whole entry, looked up): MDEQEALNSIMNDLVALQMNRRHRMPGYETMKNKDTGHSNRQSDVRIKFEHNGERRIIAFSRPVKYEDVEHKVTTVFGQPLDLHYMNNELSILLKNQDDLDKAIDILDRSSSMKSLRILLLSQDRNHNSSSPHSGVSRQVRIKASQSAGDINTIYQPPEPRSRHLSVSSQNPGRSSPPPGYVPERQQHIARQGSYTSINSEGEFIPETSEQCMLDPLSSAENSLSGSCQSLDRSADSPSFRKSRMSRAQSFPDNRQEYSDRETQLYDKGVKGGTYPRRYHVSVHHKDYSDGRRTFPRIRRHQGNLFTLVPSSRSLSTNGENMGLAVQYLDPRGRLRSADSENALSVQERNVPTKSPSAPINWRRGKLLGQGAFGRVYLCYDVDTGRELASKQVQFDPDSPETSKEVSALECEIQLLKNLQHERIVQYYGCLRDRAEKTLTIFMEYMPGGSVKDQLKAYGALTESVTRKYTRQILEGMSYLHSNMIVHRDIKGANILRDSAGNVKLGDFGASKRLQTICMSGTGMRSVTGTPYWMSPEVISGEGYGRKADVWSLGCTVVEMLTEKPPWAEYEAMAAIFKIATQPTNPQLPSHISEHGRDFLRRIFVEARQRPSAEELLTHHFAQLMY
Sequence of UniProt Q86UX6 (whole entry, looked up): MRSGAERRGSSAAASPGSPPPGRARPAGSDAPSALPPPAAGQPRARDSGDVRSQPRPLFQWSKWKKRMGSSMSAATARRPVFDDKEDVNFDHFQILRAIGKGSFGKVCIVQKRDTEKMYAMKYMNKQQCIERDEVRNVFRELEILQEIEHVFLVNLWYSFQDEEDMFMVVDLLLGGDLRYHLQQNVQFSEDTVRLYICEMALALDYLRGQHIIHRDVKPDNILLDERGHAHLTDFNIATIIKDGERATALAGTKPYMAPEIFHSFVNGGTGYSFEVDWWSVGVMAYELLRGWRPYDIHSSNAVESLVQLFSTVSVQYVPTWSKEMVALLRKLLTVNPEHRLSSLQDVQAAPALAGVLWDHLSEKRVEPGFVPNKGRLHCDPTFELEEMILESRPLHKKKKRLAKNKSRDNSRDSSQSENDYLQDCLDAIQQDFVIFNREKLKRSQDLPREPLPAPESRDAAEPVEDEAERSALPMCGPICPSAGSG
Sequence of UniProt O75676 (whole entry, looked up): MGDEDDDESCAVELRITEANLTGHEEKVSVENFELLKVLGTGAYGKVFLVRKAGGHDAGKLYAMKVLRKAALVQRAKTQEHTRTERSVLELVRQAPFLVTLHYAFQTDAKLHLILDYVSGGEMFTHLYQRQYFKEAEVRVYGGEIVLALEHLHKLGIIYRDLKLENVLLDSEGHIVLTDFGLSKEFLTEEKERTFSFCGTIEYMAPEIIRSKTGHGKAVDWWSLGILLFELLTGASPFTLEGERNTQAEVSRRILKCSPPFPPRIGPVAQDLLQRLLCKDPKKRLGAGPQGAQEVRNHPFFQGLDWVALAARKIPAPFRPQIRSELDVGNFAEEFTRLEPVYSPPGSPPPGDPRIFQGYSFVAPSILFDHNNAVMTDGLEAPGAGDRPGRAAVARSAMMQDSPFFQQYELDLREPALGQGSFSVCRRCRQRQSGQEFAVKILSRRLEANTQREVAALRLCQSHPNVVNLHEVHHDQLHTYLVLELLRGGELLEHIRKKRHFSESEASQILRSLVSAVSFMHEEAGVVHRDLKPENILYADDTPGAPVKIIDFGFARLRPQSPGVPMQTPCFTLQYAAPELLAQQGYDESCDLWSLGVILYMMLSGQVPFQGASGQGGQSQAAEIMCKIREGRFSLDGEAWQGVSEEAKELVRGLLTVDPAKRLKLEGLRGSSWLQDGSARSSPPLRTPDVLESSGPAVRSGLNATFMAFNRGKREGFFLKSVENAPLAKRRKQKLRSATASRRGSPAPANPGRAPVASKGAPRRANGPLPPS

Series 1
Cell line: mouse MPNST tumor cells
Technique: high-content immunofluorescence imaging
Item: nuclear SOX9
Concentration: 10 µM
Time: 12 h
Notes: mean of 2 replicates
Relative to: DMSO control
Direction: higher = more nuclear SOX9
Under “nuclear SOX9 intensity”, `COc1cc(C=Cc2ccc(OC)cc2OC)cc(OC)c1` is recorded as 164 % of DMSO.
Under “nuclear SOX9 intensity”, `CO[C@@]1(NC(=O)Cc2cccs2)C(=O)N2C(C(=O)O)=C(COC(N)=O)CS[C@@H]21` is recorded as 90 % of DMSO.
For `CN(C)CCC[C@@]1(c2ccc(F)cc2)OCc2cc(C#N)ccc21`, “nuclear SOX9 intensity” read 110 % of DMSO and 129 % of DMSO.
`Cc1ccc(Cl)c(Nc2ccccc2C(=O)O)c1Cl` — result for “nuclear SOX9 intensity”: 113 % of DMSO and 94.6 % of DMSO.
`CC(=O)N[C@@H](CS)C(=O)O`: “nuclear SOX9 intensity” 97.9 % of DMSO.

Series 2
Structure (SMILES): CC(C)n1cnc(-c2ccc(F)cc2)c1-c1ncc(C(=O)Nc2ccc(N3CCN(C)CC3)cc2)[nH]1
Technique: phase 2a clinical trial
Host: patients with idiopathic pulmonary fibrosis
For 30 mg once daily, with: standard of care: “patients with liver injury” read 0%.
For 60 mg once daily, with: standard of care: “patients with liver injury” read 9.1%.
For 60 mg once daily, without standard of care: “patients with liver injury” read 0%.

Series 3
SMILES: CN([C@@H]1CCc2c(CC(=O)O)c3ccccc3n2C1)S(=O)(=O)c1ccc(F)cc1
Read-out: cell-free assay
Technique: competition with immobilised ligand
Concentration: 1 µM
MAP3K3 (Homo sapiens, UniProt Q99759) — remaining binding: 100%.
STK32C (Homo sapiens, UniProt Q86UX6) — remaining binding: 100%.
For MYLK2 (Homo sapiens, UniProt Q9H1R3): remaining binding read 100%.
Ribosomal protein S6 kinase alpha-4, N-terminal kinase domain (RPS6KA4, Homo sapiens, UniProt O75676) — remaining binding: 100%.

Series 4
Target: Ephrin type-B receptor 3 (EPHB3, Homo sapiens, UniProt P54753)
Sequence of UniProt P54753 (whole entry, looked up): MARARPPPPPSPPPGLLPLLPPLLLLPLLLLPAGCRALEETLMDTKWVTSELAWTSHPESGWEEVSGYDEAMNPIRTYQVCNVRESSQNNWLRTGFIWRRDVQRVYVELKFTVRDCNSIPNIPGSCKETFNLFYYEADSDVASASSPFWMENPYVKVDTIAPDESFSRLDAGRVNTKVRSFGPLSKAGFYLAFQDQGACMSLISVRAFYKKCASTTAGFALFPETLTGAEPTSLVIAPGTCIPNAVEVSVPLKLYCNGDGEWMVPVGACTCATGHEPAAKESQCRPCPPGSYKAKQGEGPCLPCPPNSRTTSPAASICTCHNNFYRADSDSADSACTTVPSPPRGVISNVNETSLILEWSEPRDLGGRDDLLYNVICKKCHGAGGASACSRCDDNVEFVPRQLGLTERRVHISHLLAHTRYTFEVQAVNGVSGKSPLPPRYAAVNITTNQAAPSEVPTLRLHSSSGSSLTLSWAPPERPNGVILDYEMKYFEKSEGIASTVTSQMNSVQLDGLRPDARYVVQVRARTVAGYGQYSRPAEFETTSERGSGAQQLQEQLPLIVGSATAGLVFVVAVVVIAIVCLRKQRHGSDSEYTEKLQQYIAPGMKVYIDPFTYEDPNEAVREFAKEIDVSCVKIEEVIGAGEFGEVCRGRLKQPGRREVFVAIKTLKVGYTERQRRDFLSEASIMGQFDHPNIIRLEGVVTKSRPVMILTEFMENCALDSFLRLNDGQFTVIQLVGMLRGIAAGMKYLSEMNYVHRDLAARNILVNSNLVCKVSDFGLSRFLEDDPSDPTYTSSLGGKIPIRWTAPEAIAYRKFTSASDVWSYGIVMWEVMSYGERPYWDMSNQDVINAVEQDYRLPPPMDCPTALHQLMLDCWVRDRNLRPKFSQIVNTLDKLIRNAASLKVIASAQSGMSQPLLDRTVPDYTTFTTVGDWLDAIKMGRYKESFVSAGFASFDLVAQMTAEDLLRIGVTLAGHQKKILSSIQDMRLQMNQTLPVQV
Read-out: enzyme activity
Action: inhibitor
Concentration: 0.5 µM
Relative to: control
For `CO[C@H]1C[C@@H]2CC[C@@H](C)[C@@](O)(O2)C(=O)C(=O)N2CCCC[C@H]2C(=O)O[C@H]([C@H](C)C[C@@H]2CC[C@@H](O)[C@H](OC)C2)CC(=O)[C@H](C)/C=C(\C)[C@@H](O)[C@@H](OC)C(=O)[C@H](C)C[C@H](C)/C=C/C=C/C=C/1C`, the remaining activity was 103%.
`NCCNc1ncc(C(N)=O)c(Nc2cccc(C(F)(F)F)c2)n1` has a remaining activity of 95.4%.
The remaining activity of `Nc1ccc2ncnc(NCCc3ccc(Oc4ccccc4)cc3)c2c1` is reported as 97.3%.
For `CC(C)[C@H](CO)Nc1nc(Nc2cc(N)cc(Cl)c2)c2ncn(C(C)C)c2n1`, the remaining activity was 95.3%.
For `Cn1c2ccccc2c2c3c(c4c5ccccc5n(CCC#N)c4c21)CNC3=O`, the remaining activity was 87.2%.
With `O=C1NC(=O)C(c2cn(CCCO)c3ncccc23)=C1c1cnccn1` the remaining activity was 86.6%.
`CNC(=O)c1cc(Oc2ccc(NC(=O)Nc3ccc(Cl)c(C(F)(F)F)c3)cc2)ccn1` has a remaining activity of 95.5%.
